Measured values collected from several papers.
A part holds a random share of what one study measured.
UniProt P49674, sequence (whole entry, looked up): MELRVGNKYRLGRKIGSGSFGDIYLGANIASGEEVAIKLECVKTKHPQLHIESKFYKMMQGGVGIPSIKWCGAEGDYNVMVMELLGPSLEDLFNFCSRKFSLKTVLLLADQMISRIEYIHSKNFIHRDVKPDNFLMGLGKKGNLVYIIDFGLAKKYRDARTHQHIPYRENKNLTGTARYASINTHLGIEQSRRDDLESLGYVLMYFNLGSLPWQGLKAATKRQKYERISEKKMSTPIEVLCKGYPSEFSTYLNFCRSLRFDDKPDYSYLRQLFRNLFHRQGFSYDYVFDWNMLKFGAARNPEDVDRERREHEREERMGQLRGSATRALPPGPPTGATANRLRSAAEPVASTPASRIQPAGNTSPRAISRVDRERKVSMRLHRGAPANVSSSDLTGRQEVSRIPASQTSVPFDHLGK
UniProt Q8TD19, sequence (whole entry, looked up): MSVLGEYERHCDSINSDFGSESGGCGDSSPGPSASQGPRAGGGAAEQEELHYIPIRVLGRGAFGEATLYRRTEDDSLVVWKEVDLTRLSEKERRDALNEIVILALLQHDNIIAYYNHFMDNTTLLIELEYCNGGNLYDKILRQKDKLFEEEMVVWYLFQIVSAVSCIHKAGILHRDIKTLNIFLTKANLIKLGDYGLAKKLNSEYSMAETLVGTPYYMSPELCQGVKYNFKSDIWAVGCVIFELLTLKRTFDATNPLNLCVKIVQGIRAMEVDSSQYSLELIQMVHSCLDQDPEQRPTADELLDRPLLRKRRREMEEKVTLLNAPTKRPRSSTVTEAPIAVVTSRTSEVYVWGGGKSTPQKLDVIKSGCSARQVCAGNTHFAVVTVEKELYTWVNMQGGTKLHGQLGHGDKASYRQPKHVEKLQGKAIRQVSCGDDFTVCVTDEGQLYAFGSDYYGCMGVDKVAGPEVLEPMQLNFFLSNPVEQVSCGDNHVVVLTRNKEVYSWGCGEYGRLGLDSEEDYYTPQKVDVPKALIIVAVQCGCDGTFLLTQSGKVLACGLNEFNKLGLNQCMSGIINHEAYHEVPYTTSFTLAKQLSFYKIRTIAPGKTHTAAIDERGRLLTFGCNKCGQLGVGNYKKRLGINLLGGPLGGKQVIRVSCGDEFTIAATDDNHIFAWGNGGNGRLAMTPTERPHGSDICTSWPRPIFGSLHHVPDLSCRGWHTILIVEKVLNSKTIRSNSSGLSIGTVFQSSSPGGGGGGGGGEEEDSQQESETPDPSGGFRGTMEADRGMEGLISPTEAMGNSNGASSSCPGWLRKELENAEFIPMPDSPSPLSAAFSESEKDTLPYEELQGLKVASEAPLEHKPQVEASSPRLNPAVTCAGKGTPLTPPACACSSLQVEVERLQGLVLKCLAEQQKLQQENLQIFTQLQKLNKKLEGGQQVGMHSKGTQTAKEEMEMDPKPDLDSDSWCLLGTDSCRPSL
UniProt Q00526, sequence (whole entry, looked up): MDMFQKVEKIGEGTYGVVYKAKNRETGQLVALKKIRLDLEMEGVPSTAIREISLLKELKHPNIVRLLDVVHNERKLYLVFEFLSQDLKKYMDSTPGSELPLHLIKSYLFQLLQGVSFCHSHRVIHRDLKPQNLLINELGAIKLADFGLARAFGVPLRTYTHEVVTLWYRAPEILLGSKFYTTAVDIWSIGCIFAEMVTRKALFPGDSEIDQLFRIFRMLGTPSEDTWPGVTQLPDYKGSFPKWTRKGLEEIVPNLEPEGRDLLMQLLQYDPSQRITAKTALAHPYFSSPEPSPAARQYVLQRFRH
UniProt Q5VT25, sequence (whole entry, looked up): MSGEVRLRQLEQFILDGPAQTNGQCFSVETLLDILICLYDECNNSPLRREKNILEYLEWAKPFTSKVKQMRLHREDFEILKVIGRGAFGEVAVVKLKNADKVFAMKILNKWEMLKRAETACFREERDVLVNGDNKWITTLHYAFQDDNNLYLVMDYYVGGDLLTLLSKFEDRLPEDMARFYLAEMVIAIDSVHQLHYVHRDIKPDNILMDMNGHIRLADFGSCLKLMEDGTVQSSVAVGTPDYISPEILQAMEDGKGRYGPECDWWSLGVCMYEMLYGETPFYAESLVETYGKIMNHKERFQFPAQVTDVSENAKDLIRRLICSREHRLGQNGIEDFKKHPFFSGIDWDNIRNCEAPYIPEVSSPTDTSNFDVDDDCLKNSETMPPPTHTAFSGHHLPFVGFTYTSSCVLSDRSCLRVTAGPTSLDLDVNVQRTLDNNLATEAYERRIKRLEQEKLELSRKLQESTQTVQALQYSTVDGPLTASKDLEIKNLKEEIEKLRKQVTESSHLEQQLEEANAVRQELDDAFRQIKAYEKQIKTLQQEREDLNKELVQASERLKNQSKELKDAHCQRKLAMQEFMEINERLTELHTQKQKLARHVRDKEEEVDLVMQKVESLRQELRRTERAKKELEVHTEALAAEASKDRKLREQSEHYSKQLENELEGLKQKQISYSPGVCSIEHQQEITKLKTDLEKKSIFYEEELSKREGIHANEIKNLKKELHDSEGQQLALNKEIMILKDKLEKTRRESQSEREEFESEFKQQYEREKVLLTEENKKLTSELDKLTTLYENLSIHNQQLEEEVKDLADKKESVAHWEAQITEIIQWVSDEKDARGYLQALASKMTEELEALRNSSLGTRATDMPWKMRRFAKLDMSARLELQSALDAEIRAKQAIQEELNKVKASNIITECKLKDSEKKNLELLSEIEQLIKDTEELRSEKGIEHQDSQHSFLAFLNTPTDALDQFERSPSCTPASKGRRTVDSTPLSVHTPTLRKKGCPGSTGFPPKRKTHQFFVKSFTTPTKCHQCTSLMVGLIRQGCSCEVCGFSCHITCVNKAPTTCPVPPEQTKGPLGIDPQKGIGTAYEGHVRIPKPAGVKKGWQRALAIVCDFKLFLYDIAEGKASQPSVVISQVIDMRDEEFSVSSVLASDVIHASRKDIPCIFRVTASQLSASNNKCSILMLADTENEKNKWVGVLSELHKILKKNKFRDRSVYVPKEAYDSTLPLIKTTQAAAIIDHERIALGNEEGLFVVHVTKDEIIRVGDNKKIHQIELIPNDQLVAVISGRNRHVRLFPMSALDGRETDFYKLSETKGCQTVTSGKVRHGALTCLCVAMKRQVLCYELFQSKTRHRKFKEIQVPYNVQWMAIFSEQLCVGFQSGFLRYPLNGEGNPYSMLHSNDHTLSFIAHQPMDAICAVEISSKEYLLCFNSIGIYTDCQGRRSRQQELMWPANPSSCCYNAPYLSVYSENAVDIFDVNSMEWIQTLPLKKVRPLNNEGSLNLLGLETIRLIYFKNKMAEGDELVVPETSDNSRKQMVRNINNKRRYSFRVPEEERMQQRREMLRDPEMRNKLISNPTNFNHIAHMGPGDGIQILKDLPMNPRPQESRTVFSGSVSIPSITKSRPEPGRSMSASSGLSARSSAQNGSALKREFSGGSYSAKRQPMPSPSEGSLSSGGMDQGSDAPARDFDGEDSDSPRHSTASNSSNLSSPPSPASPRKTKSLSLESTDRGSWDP
UniProt Q92772, sequence (whole entry, looked up): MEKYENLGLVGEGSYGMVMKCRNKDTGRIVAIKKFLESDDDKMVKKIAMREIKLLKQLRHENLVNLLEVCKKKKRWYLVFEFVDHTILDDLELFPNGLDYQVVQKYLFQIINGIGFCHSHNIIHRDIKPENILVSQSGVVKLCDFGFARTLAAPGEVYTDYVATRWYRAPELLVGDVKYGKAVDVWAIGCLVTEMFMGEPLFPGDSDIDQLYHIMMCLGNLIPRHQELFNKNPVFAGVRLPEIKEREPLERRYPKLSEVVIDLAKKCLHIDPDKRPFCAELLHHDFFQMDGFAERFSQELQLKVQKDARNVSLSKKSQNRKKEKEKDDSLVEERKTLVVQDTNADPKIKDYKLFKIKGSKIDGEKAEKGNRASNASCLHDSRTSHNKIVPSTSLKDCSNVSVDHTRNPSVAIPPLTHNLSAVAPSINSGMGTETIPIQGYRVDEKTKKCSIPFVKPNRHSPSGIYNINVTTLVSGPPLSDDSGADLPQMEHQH
UniProt O14936, sequence (whole entry, looked up): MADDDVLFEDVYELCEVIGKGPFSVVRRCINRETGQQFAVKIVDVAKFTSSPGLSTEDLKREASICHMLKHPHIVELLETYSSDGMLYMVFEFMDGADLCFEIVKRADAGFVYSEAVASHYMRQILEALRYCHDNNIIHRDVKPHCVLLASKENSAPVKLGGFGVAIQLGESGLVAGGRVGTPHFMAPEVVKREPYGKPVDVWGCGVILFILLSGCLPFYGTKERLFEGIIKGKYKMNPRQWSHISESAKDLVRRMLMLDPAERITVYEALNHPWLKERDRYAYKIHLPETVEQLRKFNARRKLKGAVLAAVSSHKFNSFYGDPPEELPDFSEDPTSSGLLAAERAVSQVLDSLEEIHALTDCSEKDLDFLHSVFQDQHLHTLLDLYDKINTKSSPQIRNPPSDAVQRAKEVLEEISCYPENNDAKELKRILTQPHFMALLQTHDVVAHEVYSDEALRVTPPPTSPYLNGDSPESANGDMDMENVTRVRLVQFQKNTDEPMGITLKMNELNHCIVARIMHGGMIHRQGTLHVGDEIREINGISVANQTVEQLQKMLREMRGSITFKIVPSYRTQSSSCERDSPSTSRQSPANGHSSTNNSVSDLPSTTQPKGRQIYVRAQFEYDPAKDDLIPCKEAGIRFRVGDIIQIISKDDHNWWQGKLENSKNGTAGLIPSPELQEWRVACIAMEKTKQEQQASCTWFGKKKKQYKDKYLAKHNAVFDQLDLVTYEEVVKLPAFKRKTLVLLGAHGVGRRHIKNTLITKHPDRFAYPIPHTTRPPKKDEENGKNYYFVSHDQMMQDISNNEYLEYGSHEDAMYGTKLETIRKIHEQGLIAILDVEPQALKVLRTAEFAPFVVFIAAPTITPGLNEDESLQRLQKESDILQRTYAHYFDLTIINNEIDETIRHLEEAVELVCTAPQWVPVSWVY

Series 1 — cell line: A-375; concentration: 100 µM; time: 36 h
SMILES | viability
NC(CO)C(=O)NNCc1ccc(O)c(O)c1O (stereo not drawn) | 25%
Nc1cc(-c2ccncc2)c[nH]c1=O | 107%
O=C(O)Cc1ccc(-c2ccccc2)cc1 | 94.1%
CCc1nn(CCCN2CCN(c3cccc(Cl)c3)CC2)c(=O)n1CCOc1ccccc1 | 1.26%
Cc1cnc(NC(=O)C2=C(O)c3ccccc3S(=O)(=O)N2C)s1 | 87.6%
CN(C/C=C/c1ccccc1)Cc1cccc2ccccc12 | 23.1%
O=C(O)c1cc(=O)c2ccccc2o1 | 114%
CC(C)(C)NC(=O)[C@H]1CC[C@H]2[C@@H]3CC[C@H]4NC(=O)C=C[C@]4(C)[C@H]3CC[C@]12C | 49%
CC1(C)O[C@@H]2C[C@H]3[C@@H]4CCC5=CC(=O)CC[C@]5(C)[C@@]4(F)[C@@H](O)C[C@]3(C)[C@]2(C(=O)CCl)O1 | 77.4%
CCC(CC)[C@H](NC(C)=O)[C@@H]1[C@H](O)[C@@H](C(=O)O)C[C@H]1NC(=N)N | 98.1%
CC1=NN(c2ccc(C)c(C)c2)C(=O)/C1=N\Nc1cccc(-c2cccc(C(=O)O)c2)c1O | 40.4%
O=C(Nc1ccc(Cl)cc1)c1cc(Br)ccc1O | 14.2%
CCCNC(=O)NS(=O)(=O)c1ccc(Cl)cc1 | 96.5%
O=c1c(-c2ccc(O[C@@H]3O[C@H](CO)[C@@H](O)[C@H](O)[C@H]3O)cc2)coc2cc(O)cc(O)c12 | 89.7%
COc1ccccc1OCC(O)CO (stereo not drawn) | 92.5%
OC[C@@H](O)[C@@H](O)[C@H](O)[C@@H](O)CO | 101%

Series 2 — observed: enzyme activity; mode: inhibitor; concentration: 0.5 µM; reference: control
Target: Aurora kinase C (AURKC, Homo sapiens, UniProt Q9UQB9)
Construct (Q9UQB9 1-309): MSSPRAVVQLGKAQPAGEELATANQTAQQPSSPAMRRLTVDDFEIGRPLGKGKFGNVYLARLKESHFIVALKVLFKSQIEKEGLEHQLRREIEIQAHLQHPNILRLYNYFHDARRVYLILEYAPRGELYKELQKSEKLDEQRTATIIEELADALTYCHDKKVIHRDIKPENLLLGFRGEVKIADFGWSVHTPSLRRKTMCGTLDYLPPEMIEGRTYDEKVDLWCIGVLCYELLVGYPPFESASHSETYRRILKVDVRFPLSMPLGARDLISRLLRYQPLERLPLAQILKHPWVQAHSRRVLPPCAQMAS
SMILES | remaining activity [%]
Fc1ccc(-c2nc3n(c2-c2ccncc2)CCS3)cc1 | 102
Nc1nccc(-c2c(-c3ccc(F)cc3)ncn2C2CCNCC2)n1 | 97.8
CC#CC(=O)Nc1cc2c(Nc3ccc(F)c(Cl)c3)ncnc2cn1 | 95.9
CC(=O)c1ccc(N2CCOCC2)cc1O | 104
Oc1ccc(Nc2nc(-c3ccc(Cl)cc3)cs2)cc1 | 97
Cc1ccc(NC2=CC(=O)c3sc(C)nc3C2=O)cc1 | 90.7
CCc1[nH]c(-c2ccc(OC)cc2)nc1-c1ccncc1 | 97.4
O=S(=O)(NCCNC/C=C/c1ccc(Br)cc1)c1cccc2cnccc12 | 89
CC(C)(C)n1nc(Cc2cccc3ccccc23)c2c(N)ncnc21 | 93.2
CC[n+]1c(/C=C/N(C)c2ccccc2)n(-c2ccccc2)c2ccc(-c3nc4ccccc4s3)cc21 | 91.3
CCCC(=O)Oc1ccc2[nH]c(C(=O)c3cc4ccccc4[nH]3)cc2c1 | 94.9
CSc1nc(-c2ccnc(N[C@@H](C)c3ccccc3)c2)c(-c2ccc(F)cc2)[nH]1 (racemic) | 100
Nc1nc(Nc2ccc(S(N)(=O)=O)cc2)nn1C(=O)c1c(F)cccc1F | 28.3
COc1cc(Nc2c(C#N)cnc3cc(OCCCN4CCN(C)CC4)c(OC)cc23)c(Cl)cc1Cl | 82.1
COc1ccc(S(=O)(=O)N(CCO)c2ccccc2CN(C)CC=Cc2ccc(Cl)cc2)cc1 | 96.8
Nc1ncnc2c1cnn2-c1ccccc1 | 98.2
Cc1cc(Nc2nc(-c3ccccc3)nc3ccccc23)n[nH]1 | 51.8
Cc1cncc2cccc(S(=O)(=O)N3CCCN(C(=O)CN)C[C@@H]3C)c12 | 71.9
NC(=O)c1ccc(N(C(N)=O)c2c(F)cccc2F)nc1-c1ccc(F)cc1F | 83.8
O=C1NC(=O)C(c2c[nH]c3ccccc23)=C1c1c[nH]c2ccccc12 | 101
N#CC(=C(N)Sc1ccc(N)cc1)c1ccccc1C(F)(F)F | 97.5

Series 3 — species: cancer patients; matrix: plasma; route: oral; setting: single dose
Structure (SMILES): COc1ccc(-c2c(Nc3ccccn3)[nH]c3c(C4=CCCCC4)c(-c4ccccc4)nn3c2=O)cc1
dose | time | plasma concentration, mean [ng/mL]
50 mg | 6 h post-dose | 400
50 mg | 72 h post-dose | 36.4
150 mg | 1 h post-dose | 706
200 mg | 6 h post-dose | 1420
100 mg | 0 h post-dose | 0
50 mg | 48 h post-dose | 84.1
150 mg | 48 h post-dose | 495
100 mg | 8 h post-dose | 1000

Series 4 — method: competition with immobilised ligand; concentration: 1 µM
SMILES: O=C(O)[C@H]1[C@H](Cn2nnc3ccccc3c2=O)CC[C@@H]1C(=O)c1ccc(OCCC2CCOCC2)cc1
target | observed | remaining binding
TGFBR1 (Homo sapiens, UniProt P36897) | cell-free assay | 90%
CSNK1E (Homo sapiens, UniProt P49674) | cell-free assay | 100%
CDK3 (Homo sapiens, UniProt Q00526) | cell-free assay | 100%
EGFR (Homo sapiens, UniProt P00533, L858R/T790M) | cell-free assay | 64%
CASK (Homo sapiens, UniProt O14936) | cell-free assay | 100%
NEK9 (Homo sapiens, UniProt Q8TD19) | cell-free assay | 91%
CDC42BPA (Homo sapiens, UniProt Q5VT25) | cell-free assay | 100%
CDKL2 (Homo sapiens, UniProt Q92772) | binding | 97%
HCK (Homo sapiens, UniProt P08631) | cell-free assay | 70%

Some of these lines once more (series 4):
target | observed | remaining binding
TGFBR1 (Homo sapiens, UniProt P36897) | cell-free assay | 90%
CSNK1E (Homo sapiens, UniProt P49674) | cell-free assay | 100%
CDK3 (Homo sapiens, UniProt Q00526) | cell-free assay | 100%
EGFR (Homo sapiens, UniProt P00533, L858R/T790M) | cell-free assay | 64%
CASK (Homo sapiens, UniProt O14936) | cell-free assay | 100%
